Published values from different studies.
Compare with care: the assays were run in different laboratories. “And” joins repeats or separate records; there may be more than shown.
Target: Serine/threonine-protein kinase D1 (PRKD1, Homo sapiens, UniProt Q15139)

For `NC(=O)[C@@H](O)C[C@H]1CCc2sc3ncnc(O[C@H]4CC[C@H](N5CCOCC5)CC4)c3c21`, the inhibition was 7% (enzyme activity, inhibitor; 10 µM).
With `COc1ccc(NC(=O)Nc2ccc3c(c2)C(=O)N(C(C)CO)CC(C)C(CN(C)Cc2ccc4c(c2)OCO4)O3)cc1` (stereo not drawn) the remaining activity was 102% (kinase activity, KinaseProfiler; 0.03 µM, species human; relative to: control).
For `c1ccc2c(Nc3cc(C4CCC4)[nH]n3)nc(Nc3ccc4nc[nH]c4c3)nc2c1`, the remaining activity was 3% (enzyme activity, inhibitor; 0.25 µM).
`Cc1cnc2nc1Nc1cccc(c1)COC/C=C/COCc1cc(ccc1OCCN1CCOCC1)N2` has a remaining binding of 93% (binding; 0.1 µM).
With `Cc1cccc(O[C@H]2CCC[C@@H](C(C)CNCc3ccncc3)C2)c1` (relative stereo) the inhibition was 9% (enzyme activity, inhibitor; 1 µM).
With `Cc1cccc(-c2ccc3nc(NC(=O)C4CCCO4)nn3c2)c1` (stereo not drawn) the remaining activity was 92% (enzyme activity, Dundee kinase panel; 10 µM).
`C=CC(=O)N1CCCC(n2c(=O)c3ncccc3n(Cc3ccc(Oc4ccccc4)cc3)c2=O)C1` (stereo not drawn) gave a remaining binding of 69% (cell-free assay, competition with immobilised ligand; 1 µM).
With `COc1c(Cl)cccc1Nc1c(-c2ccncc2C#C[C@@]2(C)CCCN2C(=O)/C=C/CN(C)C)[nH]c2c1C(=O)NCC2` the remaining binding was 77% (binding, competition with immobilised ligand; 3 µM).
`Nc1nc(Nc2ccccc2)sc1C(=O)c1ccccc1` has a remaining activity of 29% (enzyme activity, inhibitor; 10 µM).
The remaining binding of `Nc1ncc2c(n1)-c1c([nH]c3ccc(C4=CCOCC4)cc13)CCC2` is reported as 90% (binding, competition with immobilised ligand; 1 µM).
With `CC(C)=CC1OC(C)(C)C2C=C3C(=O)C(Cl)=CC(O)C3C3C(O)C4OC4C(=O)C132` (stereo not drawn) the remaining binding was 100% (cell-free assay, competition with immobilised ligand; 10 µM).
For `COc1cc(Nc2nc(C)cc(-c3cnn4nc(OC)ccc34)n2)cc(C(F)(F)F)c1`, the remaining activity was 100% (inhibitor; 1 µM; relative to: control).
`CN1CC[C@@H](COc2cnc(C#N)cc2-c2ccn3nc(NC(=O)C4CC4)cc3c2)C1` has an inhibition of -4% (enzyme activity, inhibitor; 1 µM).
The remaining binding of `CNC1C[S+]2CC[S+]3CC[S+](C1)[Ru-4]321([N]=C=S)[n]2c3ccc(OC)cc3c3c4c(c5cc(F)c[n+]1c5c32)C(=O)NC4=O` (stereo not drawn) is reported as 100% (KinomeScan; 0.1 µM; relative to: untreated).
`N[C@H]1CC[C@H](Nc2nccc(-c3cccnc3Oc3ccc(NC(=O)NC4CC4)c4ccccc34)n2)CC1`: “log2 LFQ intensity” 18.5 and 19 and 21.8 and 18.9 (kinobead competition pulldown; HEK293/HCT116 lysate mixture; 10 µM, 1 h, 4 °C; lower = stronger competition).
With `O=c1c(-c2ccc(Cl)c(CN3CCOCC3)c2)coc2cc(O)ccc12` the remaining activity was 104% (enzyme activity, inhibitor; 1 µM).
With `Cc1ccc(C)c(-c2ccc3nc(NC(=O)C4CCCCC4)nn3c2)c1` the remaining activity was 80% (enzyme activity, Dundee kinase panel; 10 µM).
With `C=CC(=O)Nc1cccc(-c2cnc3[nH]cc(C(=O)NC(C)(C)C)c3n2)c1` the inhibition was 1% (enzyme activity, inhibitor; 0.1 µM).

A few entries again:
With `CC(C)=CC1OC(C)(C)C2C=C3C(=O)C(Cl)=CC(O)C3C3C(O)C4OC4C(=O)C132` (stereo not drawn) the remaining binding was 100% (cell-free assay, competition with immobilised ligand; 10 µM).
